Experimental data pooled from the literature.
Parts stem from different laboratories: compare values within a part only. Changes are numbered by the printed parent chain.

Set 1 — target: CCND3, cyclin fold, Cln2 fusion (human); method: yeast growth competition, sequencing; sample: yeast; setting: weak parent motif; baseline: not given; reading: higher = stronger binding
Starting sequence: PKN2 docking peptide (human); VSAVQKLDFSDTM; partner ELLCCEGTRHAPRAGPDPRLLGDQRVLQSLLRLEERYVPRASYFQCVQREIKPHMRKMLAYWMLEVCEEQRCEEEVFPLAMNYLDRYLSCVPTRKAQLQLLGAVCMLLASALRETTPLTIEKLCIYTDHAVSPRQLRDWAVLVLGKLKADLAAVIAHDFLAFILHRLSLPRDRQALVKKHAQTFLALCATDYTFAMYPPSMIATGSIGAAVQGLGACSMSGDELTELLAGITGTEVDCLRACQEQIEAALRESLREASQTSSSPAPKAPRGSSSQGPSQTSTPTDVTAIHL
`TSAVQKLDFSDTM [V1T]` — result for “normalised enrichment score”: 0.12.
`VYAVQKLDFSDTM [S2Y]` — result for “normalised enrichment score”: 0.17.
For `GSAVQKLDFSDTM [V1G]`, “normalised enrichment score” read 0.103.
For `VSAVQKLTFSDTM [D8T]`, “normalised enrichment score” read 0.0357.
For `VSAVQKLDFSCTM [D11C]`, “normalised enrichment score” read 0.153.
Under “normalised enrichment score”, `VSAVQTLDFSDTM [K6T]` is recorded as 0.258.
Under “normalised enrichment score”, `VSAVQKLWFSDTM [D8W]` is recorded as 0.129.
`VSAVQKLDFSWTM [D11W]`: “normalised enrichment score” 0.131.
For `VSAVQKLEFSDTM [D8E]`, “normalised enrichment score” read 0.0891.
Under “normalised enrichment score”, `VSAVQKLDFSDEM [T12E]` is recorded as 0.219.
`VSAVQKLLFSDTM [D8L]` — result for “normalised enrichment score”: 0.15.
`VSAVQKLDFTDTM [S10T]`: “normalised enrichment score” 0.107.
Under “normalised enrichment score”, `VSWVQKLDFSDTM [A3W]` is recorded as 0.148.
For `VSAVAKADFSDTM [Q5A L7A]`, “normalised enrichment score” read 0.0502.
Under “normalised enrichment score”, `VSAVQKLDFSSTM [D11S]` is recorded as 0.142.
`VSAVQKLDFQDTM [S10Q]` — result for “normalised enrichment score”: 0.117.
`ISAVQKLDFSDTM [V1I]` — result for “normalised enrichment score”: 0.0841.
For `VSAVQMLDFSDTM [K6M]`, “normalised enrichment score” read 0.153.
For `VSAVQKLDLSDTM [F9L]`, “normalised enrichment score” read 0.0122.
Under “normalised enrichment score”, `VSPVQKLDFSDTM [A3P]` is recorded as 0.129.
`VCAVQKLDFSDTM [S2C]` — result for “normalised enrichment score”: 0.147.
`VSAFQKLDFSDTM [V4F]` — result for “normalised enrichment score”: 0.115.
For `VSAVQKQDFSDTM [L7Q]`, “normalised enrichment score” read 0.0841.
Under “normalised enrichment score”, `VSAVQKLDFSDNM [T12N]` is recorded as 0.138.
`VSAVQKFDFSDTM [L7F]`: “normalised enrichment score” 0.105.

Set 2 — method: DHFR PCA, deep sequencing; sample: yeast; with: (+)-ABA 710 µM; baseline: wild-type fitted maximum; reading: higher = stronger binding
Target: ABI1, truncated, D143A, DHFR fusion (Arabidopsis thaliana)
Setting: methotrexate growth selection, single substitutions
Starting sequence: PYL1, truncated, DHFR fusion (Arabidopsis thaliana); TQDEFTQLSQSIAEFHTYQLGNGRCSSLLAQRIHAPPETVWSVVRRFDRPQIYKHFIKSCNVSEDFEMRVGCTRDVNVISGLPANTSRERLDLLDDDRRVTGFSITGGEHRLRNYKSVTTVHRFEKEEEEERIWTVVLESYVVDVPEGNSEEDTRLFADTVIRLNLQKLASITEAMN; partner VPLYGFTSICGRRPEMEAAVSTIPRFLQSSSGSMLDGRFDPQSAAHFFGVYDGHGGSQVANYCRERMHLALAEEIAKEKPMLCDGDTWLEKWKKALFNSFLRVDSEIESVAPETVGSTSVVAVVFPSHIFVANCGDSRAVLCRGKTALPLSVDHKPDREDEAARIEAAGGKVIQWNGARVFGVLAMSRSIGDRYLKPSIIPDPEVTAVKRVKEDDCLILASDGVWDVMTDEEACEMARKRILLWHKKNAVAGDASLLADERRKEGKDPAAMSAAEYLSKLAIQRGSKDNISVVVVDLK
Under “relative binding score”, `E109W` is recorded as 81%.
For `S171L`, “relative binding score” read 95.6%.
Under “relative binding score”, `S59N` is recorded as 104%.
`H122Q`: “relative binding score” 85%.
Under “relative binding score”, `T120Q` is recorded as 74.6%.
Under “relative binding score”, `E14A` is recorded as 89%.
For `A35Y`, “relative binding score” read 31.6%.
`D97K`: “relative binding score” 117%.
`C72S`: “relative binding score” 101%.
`F103R`: “relative binding score” -9.38%.
`G21E` — result for “relative binding score”: 101%.
Under “relative binding score”, `E130G` is recorded as 109%.
`Q31I` — result for “relative binding score”: 74.7%.
Under “relative binding score”, `S26R` is recorded as 93.5%.
`W134G` — result for “relative binding score”: 108%.
`H55M` — result for “relative binding score”: 105%.

Set 3 — method: protein-binding microarray; form: double-stranded DNA, one strand shown; sample: in vitro; tested at: 2540 nM top; setting: 60-bp whole probe; with: salmon DNA 0.4 mg/ml; baseline: random background probes; reading: higher = stronger binding; shared flanks, not repeated: GCCTAGCAC … GTCTTGATTCGCTTGACGCTGCTG
Target: Interferon regulatory factor 3, full length, phosphomimetic (IRF3, Homo sapiens, UniProt Q14653, residues 1-427, S386D/S396D/S398D/S402D/T404D/S405D)
Construct (chain): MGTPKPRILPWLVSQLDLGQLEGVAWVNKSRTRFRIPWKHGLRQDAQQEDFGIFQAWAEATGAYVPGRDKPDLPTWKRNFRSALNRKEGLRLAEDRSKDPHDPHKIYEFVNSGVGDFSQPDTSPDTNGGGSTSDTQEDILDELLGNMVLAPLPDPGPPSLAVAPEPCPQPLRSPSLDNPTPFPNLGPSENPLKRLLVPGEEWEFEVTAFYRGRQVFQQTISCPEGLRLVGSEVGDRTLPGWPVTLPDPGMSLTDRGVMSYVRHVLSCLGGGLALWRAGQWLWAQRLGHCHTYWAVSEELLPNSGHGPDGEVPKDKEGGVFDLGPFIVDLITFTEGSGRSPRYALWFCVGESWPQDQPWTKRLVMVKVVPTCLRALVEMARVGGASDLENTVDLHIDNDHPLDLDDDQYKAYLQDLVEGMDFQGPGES
`TCATGTTTACAGATGTTACTGTGCTAG` — result for “fitted relative affinity”: 0.296 z-score.
`GACGGTATCGGCTATCGGGACGTGCTA` — result for “fitted relative affinity”: 0.554 z-score.
For `TCAAATTTTTTTCTAAGACTGTGCTAG`, “fitted relative affinity” read 0.0769 z-score.
For `GACGGACTGGGTATCAGGACGTGCTAG`, “fitted relative affinity” read -0.13 z-score.
`TCATGTCTGGGATTTTGACTGTGCTAG` — result for “fitted relative affinity”: -0.339 z-score.
For `TTAGATATCAGTATCGCTTAGTGCTAG`, “fitted relative affinity” read 1.6 z-score.
`TTAGGTATCGGTTTCAGTTAGTGCTAG` — result for “fitted relative affinity”: 6.61 z-score.
For `GACGGTGCCCTTTTCCTGACGTGCTAG`, “fitted relative affinity” read 3.49 z-score.
`GACGGTATCCTTCTCCTGCCGTGCTAG`: “fitted relative affinity” 6.88 z-score.
Under “fitted relative affinity”, `TTAGATATCAGACTGGATCAGTGCTAG` is recorded as 0.0438 z-score.
`TCATGTCCTCCTCTCTCACTGTGCTAG` — result for “fitted relative affinity”: 0.663 z-score.
For `TTAGGTCTCCTTATCCGTTAGTGCTAG`, “fitted relative affinity” read 2.73 z-score.
`GAAGGACTGGGGTATCGGGACGTGCTA`: “fitted relative affinity” -0.753 z-score.
For `TCAGTTCCCTATTTAAGACTGTGCTAG`, “fitted relative affinity” read 4.53 z-score.
Under “fitted relative affinity”, `TCACCTGAATGAAAACATACTGTGCTA` is recorded as 0.29 z-score.
`GACGGTTTCGGGACTGGCGACGTGCTA`: “fitted relative affinity” 4.8 z-score.
For `TCAATATTCTGCTTTGCACTGTGCTAG`, “fitted relative affinity” read 0.212 z-score.
`TTAGGTCGCGGTATCGGTTAGTGCTAG` — result for “fitted relative affinity”: 1.74 z-score.
Under “fitted relative affinity”, `GACGATTTCGGGTATCGAGCCGTGCTA` is recorded as 1.52 z-score.

Set 4 — method: RNA Bind-n-Seq; form: RNA; sample: in vitro; tested at: 1 µM; setting: whole 134-nt RNA, ends assumed; with: 150 mM KCl; baseline: input library; reading: higher = stronger binding
Target: Ras GTPase-activating protein-binding protein 1, RRM domain (G3BP1, Homo sapiens, UniProt Q13283)
UniProt Q13283, sequence (whole entry, looked up): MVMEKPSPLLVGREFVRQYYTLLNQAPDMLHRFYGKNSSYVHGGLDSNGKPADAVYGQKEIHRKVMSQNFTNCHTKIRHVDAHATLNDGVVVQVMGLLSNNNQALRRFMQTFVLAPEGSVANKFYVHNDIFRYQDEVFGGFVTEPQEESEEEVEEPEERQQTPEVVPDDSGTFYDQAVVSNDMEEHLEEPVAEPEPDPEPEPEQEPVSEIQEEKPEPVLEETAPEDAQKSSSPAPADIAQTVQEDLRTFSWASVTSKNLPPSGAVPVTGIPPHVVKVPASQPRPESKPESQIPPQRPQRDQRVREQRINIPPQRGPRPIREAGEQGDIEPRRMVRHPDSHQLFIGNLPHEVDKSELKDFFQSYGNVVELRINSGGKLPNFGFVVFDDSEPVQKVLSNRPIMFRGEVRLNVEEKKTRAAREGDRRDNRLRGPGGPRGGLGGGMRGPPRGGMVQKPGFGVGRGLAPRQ
`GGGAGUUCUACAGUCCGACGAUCUCAAGUCCUGUGCUACACAUCGUAUGUACCGAAUCGGUUUGGAAAAAGGUUUGGAAAGUAUUAUGUUACGCCGUUCGGAUCUGCACUUCCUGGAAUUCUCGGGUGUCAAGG` gave a log2 enrichment of -0.224.
`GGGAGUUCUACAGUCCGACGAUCUCAAGUCCUGUGCUACACAUCGUAUGUACCGAAUCGGUUGGGGUUGGGUUGGGGAAAGUAUUAUGUUACGCCGUUCGGAUCUGCACUUCCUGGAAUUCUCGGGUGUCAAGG` gave a log2 enrichment of 0.461.
With `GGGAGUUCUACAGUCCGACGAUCUGGGAGGUGGAUUUUGUUUAUUUUUUUAGCUCAUUUCCAGGGGUGGGAAUUUUUUUUUAAUAUGUGUCAUGAAUAAAGUUAUUUUUGAAAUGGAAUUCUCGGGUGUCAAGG` the log2 enrichment was 1.87.
For `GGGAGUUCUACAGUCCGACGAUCUUUUUGAAUCAAUUUUUAAAACAUGCCAUUGUGUUUCAGGCUCGCGGGAUUGAUGUGCAACAAGUGUCUUUGGUUAUAAAUUAUGAUCUAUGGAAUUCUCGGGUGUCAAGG`, the log2 enrichment was -0.17.
With `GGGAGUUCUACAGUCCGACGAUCACCAUGCAGGUGGGCAUCUUUGGGAAGUGGGGCAAGGGGGGGAUAGGGAGGGGGGUAACACUUUGGGAACAGGUGGUCCCAAAUCGUUUCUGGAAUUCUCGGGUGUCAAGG` the log2 enrichment was -0.484.
With `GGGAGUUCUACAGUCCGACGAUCCCUCAAGUCCUGUGCUACACAUCGUAUGUACCGAAUCGGUGGUUUGGAAAGGAAAGUAUUAUGUUACGCCGUUCGGAUCUGCACUUCCAGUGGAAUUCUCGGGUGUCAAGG` the log2 enrichment was -0.172.
`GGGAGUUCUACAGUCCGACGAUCAGUCCUGUGCUACACAUCGUAUGUACCGAAUCGGUUUUUGGGUUUUUGGGUUUUUGGGAAAGUAUUAUGUUACGCCGUUCGGAUCUGCACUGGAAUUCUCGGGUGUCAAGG` has a log2 enrichment of -0.0803.
`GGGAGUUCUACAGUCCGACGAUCUUGCAGAUGAGCUUAUGGGGGGCAAUCUUAAAAAGUCCACAGCAGAUGCAUCCGGCUCGAGGGGCCAUCAGCUUUGAAUAAAUGCUUGUUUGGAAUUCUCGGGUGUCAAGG` has a log2 enrichment of -0.157.
The log2 enrichment of `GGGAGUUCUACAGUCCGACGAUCAACAGACAACACGCACCCACACAGACACAGAGGGAAGGGGUUGGGAUGGGGACAGGGUGCACAGCAGGGCGGGGUAGGACCCCAGCCCCUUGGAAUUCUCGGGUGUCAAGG` is reported as -0.184.

Single results of other studies
`PhoQ, residues 284 288 289 292 302 303 TYGVAM` has a fold induction of 25.9 (PhoP, residues 12 14 15 18 19 GQALL (Escherichia coli, UniProt P23836); Sort-seq, item: YFP reporter; E. coli; PhoQ-PhoP variant library, with: 10 µM Mg2+; baseline: high Mg2+ state, higher = stronger signaling).

Excerpt of the above (set 3):
`TCATGTCTGGGATTTTGACTGTGCTAG` — result for “fitted relative affinity”: -0.339 z-score.
For `TTAGATATCAGTATCGCTTAGTGCTAG`, “fitted relative affinity” read 1.6 z-score.
`TTAGGTATCGGTTTCAGTTAGTGCTAG` — result for “fitted relative affinity”: 6.61 z-score.
For `GACGGTGCCCTTTTCCTGACGTGCTAG`, “fitted relative affinity” read 3.49 z-score.
`GACGGTATCCTTCTCCTGCCGTGCTAG`: “fitted relative affinity” 6.88 z-score.
Under “fitted relative affinity”, `TTAGATATCAGACTGGATCAGTGCTAG` is recorded as 0.0438 z-score.
`TCATGTCCTCCTCTCTCACTGTGCTAG` — result for “fitted relative affinity”: 0.663 z-score.
For `TTAGGTCTCCTTATCCGTTAGTGCTAG`, “fitted relative affinity” read 2.73 z-score.
`GAAGGACTGGGGTATCGGGACGTGCTA`: “fitted relative affinity” -0.753 z-score.
For `TCAGTTCCCTATTTAAGACTGTGCTAG`, “fitted relative affinity” read 4.53 z-score.
Under “fitted relative affinity”, `TCACCTGAATGAAAACATACTGTGCTA` is recorded as 0.29 z-score.
